Measurements collected from several papers.
± gives the spread as reported. In brackets after ≈: the same amount, converted by molar mass.
UniProt P05177, sequence (whole entry, looked up): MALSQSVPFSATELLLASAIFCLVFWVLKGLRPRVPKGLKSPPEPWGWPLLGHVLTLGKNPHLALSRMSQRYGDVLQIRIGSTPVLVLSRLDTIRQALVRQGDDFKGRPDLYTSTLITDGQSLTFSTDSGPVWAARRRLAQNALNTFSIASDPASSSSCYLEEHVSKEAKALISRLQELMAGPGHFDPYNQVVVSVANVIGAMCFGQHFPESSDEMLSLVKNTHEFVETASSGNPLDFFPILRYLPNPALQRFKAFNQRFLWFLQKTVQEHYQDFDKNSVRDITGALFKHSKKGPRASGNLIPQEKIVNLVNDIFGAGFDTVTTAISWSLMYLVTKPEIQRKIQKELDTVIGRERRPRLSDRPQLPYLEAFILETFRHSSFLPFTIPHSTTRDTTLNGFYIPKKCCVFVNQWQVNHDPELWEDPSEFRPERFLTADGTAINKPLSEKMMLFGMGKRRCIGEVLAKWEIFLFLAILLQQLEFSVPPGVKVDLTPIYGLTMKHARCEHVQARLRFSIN

CN1C(=O)[C@@H](Cc2ccc(O)cc2)NC(=O)CNC(=O)[C@H](Cc2ccc3ccccc3c2)NC(=O)[C@H](CCCNC(=N)N)NC(=O)[C@H]1CCCNC(=O)c1ccc(CNC(=O)CN2CCN(CC(=O)O)CCN(CC(=O)O)CCN(CC(=O)O)CC2)cc1 [gallium-68 labelled] — absorbed dose coefficient (extrapolated to adult male; C57BL/6 mice, kidneys): 0.0385 ± 0.0256 mGy/MBq
CCCC[C@H](NC(=O)COCCOCCNC(=O)CN1CCN(CC(=O)O)CCN(CC(=O)O)CC1)C(=O)N[C@H]1CC(=O)NCCCC[C@@H](C(N)=O)NC(=O)[C@H](Cc2c[nH]c3ccccc23)NC(=O)[C@H](CCCNC(=N)N)NC(=O)[C@@H](Cc2ccccc2)NC(=O)[C@H](Cc2c[nH]cn2)NC1=O [copper-64 labelled] — tissue uptake (C57 mice, spleen; intravenous, 0.37 MBq, 2 h): 0.26 ± 0.12 %ID/g
N=C(N)NCCC[C@H](NC(=O)[C@H](CCCNC(=N)N)NC(=O)[C@H](CCCNC(=N)N)NC(=O)[C@H](CCCNC(=N)N)NC(=O)[C@H](CCCNC(=N)N)NC(=O)[C@H](CCCNC(=N)N)NC(=O)[C@H](CCCNC(=N)N)NC(=O)[C@H](CCCNC(=N)N)NC(=O)CN1CCN(CC(=O)O)CCN(CC(=O)O)CCN(CC(=O)O)CC1)C(=O)O — cellular uptake (NIH/3T3 cells; refers to: Gd; 0.10 mM, 4 h; relative to: reference compounds): increased
C=CC(=O)Nc1cc(Nc2nccc(-c3cn(C)c4ccccc34)n2)c(OCC(F)(F)F)nc1N(C)CCN(C)C — remaining activity (Cytochrome P450 1A2 (CYP1A2, Homo sapiens, UniProt P05177); enzyme activity, inhibitor, refers to: phenacetin O-deethylation; human liver microsomes; 100 µM): 67.2%
[64Cu+2].c1ccc(CNCc2ccc(CN3CCCN4CCNCCCN(CC4)CC3)cc2)nc1 — tissue uptake (CXCR4; NOD/SCID mouse, U87 and U87-stb-CXCR4 xenografts, pancreas; iv, 60 min, ex vivo): 1.38 ± 0.16 %ID/g
CCCC[C@@H]1NC(=O)[C@@H](CC(C)C)NC(=O)[C@H](CCCCNC(=O)CN2CCN(CC(=O)O)CCN(CC(=O)O)CC2)NC(=O)[C@@H](CO)NC(=O)[C@H](Cc2c[nH]cn2)NC(=O)[C@@H](Cc2c[nH]c3ccccc23)NC1=O [copper-64 labelled] — plasma protein binding (refers to: 64Cu; mouse plasma; 37 °C): 81%
C[C@@H](O)[C@@H]1NC(=O)[C@H](CCCCN)NC(=O)[C@@H](Cc2c[nH]c3ccccc23)NC(=O)[C@H](Cc2ccc(O)cc2)NC(=O)[C@@H](NC(=O)[C@@H](Cc2ccccc2)NC(=O)CN2CCN(CC(=O)O)CCN(CC(=O)O)CCN(CC(=O)O)CC2)CSSC[C@@H](C(=O)N[C@H](CO)[C@@H](C)O)NC1=O [gallium-67 labelled] — remaining intact (radio-TLC; mouse plasma; 24 h, 37 °C, 67Ga-labelled): 82.8 ± 0.9%
CN(C)CCCSC(=S)N1CCN(C(=O)/C=C/c2coc3ccc(F)cc3c2=O)CC1 — protective effect (tomato spotted wilt virus; viral infection, half-leaf method; Nicotiana glutinosa; 500 µg/mL): 63.8 ± 7.2%
N=C(N)NCCC[C@@H]1NC(=O)[C@H](Cc2c[nH]c3ccccc23)NC(=O)[C@@H](CC2CCCCC2)NC(=O)[C@@H]2CCCN2C(=O)[C@@H](NC(=O)CCc2ccccc2)CCCNC1=O — MRT(0-inf) (C57BL/6J mouse, plasma brain; intraperitoneal, 1 mg/kg single dose): 1.24 h
CC[C@@]1(OC(=O)CCCCCCCCCCCNC(=O)C[C@H](N)C(=O)N[C@@H](CCC(=O)N[C@@H](CCC(=O)N[C@@H](CCC(=O)N[C@@H](CCC(=O)O)C(=O)O)C(=O)O)C(=O)O)C(=O)O)C(=O)OCc2c1cc1n(c2=O)Cc2cc3ccccc3nc2-1 — aqueous solubility (PBS; pH 7.4): 76 mg/mL (≈ 64.6 mM)
C/C=C(/C)C(=O)O[C@H]1C(C)=C2[C@H]([C@@H]1OC(=O)CCCCCCC)[C@@](C)(OC(C)=O)C[C@H](OC(=O)CCCCCCCCCCCNC(=O)C[C@H](N)C(=O)N[C@@H](CCC(=O)N[C@@H](CCC(=O)N[C@@H](CCC(=O)N[C@@H](CCC(=O)O)C(=O)O)C(=O)O)C(=O)O)C(=O)O)[C@@]1(O)[C@H]2OC(=O)[C@@]1(C)O — fraction eliminated in beta phase (human patients; intravenous infusion): > 90%
CSCC[C@H](NC(=O)[C@H](CC(=O)O)NC(=O)[C@H](CO)NC(=O)[C@H](Cc1c[nH]cn1)NC(=O)[C@H](Cc1c[nH]c2ccccc12)NC(=O)CN1CCN(CC(=O)O)CCN(CC(=O)O)CCN(CC(=O)O)CC1)C(=O)N[C@@H](CCC(=O)O)C(=O)N[C@@H](Cc1c[nH]c2ccccc12)C(=O)N[C@@H](Cc1c[nH]c2ccccc12)C(=O)N[C@@H](Cc1ccc(O)cc1)C(=O)N[C@@H](CC(C)C)C(=O)N[C@@H](CC(C)C)C(=O)NCC(=O)N[C@@H](CCCCNC(=O)COCCOCCNC(=O)CCN1C(=O)C=CC1=O)C(=O)O [copper-64 labelled] — intact compound (radio-HPLC; PBS; 24 h, pH 7.4, 37 °C): > 85%
CCCC[C@H](NC(=O)CNC(=O)CNC(=O)CN1CCN(CC(=O)O)CCN(CC(=O)O)CCN(CC(=O)O)CC1)C(=O)N[C@H]1CC(=O)NCCCC[C@@H](C(N)=O)NC(=O)[C@H](Cc2c[nH]c3ccccc23)NC(=O)[C@H](CCCNC(=N)N)NC(=O)[C@@H](Cc2ccccc2)NC(=O)[C@H](Cc2c[nH]cn2)NC1=O [lutetium-177 labelled] — tissue uptake (C57 mouse, female, kidneys; intravenous, 0.037 MBq, 0.5 h): 13.8 ± 2.51 %ID/g
N=C(N)NCCC[C@@H]1NC(=O)[C@H](CCCCNC(=O)CNC(=O)CNC(=O)CNC(=O)CC[C@H](NC(=O)CNC(=O)CNC(=O)CNC(=O)CC[C@H](NC(=O)CN2CCN(CC(=O)O)CCN(CC(=O)O)CCN(CC(=O)O)CC2)C(=O)NCC(=O)NCC(=O)NCC(=O)N[C@@H](CCC(=O)NCC(=O)NCC(=O)NCC(=O)NCCCC[C@@H]2NC(=O)[C@@H](Cc3ccccc3)NC(=O)[C@H](CC(=O)O)NC(=O)CNC(=O)[C@H](CCCNC(=N)N)NC2=O)C(=O)NCC(=O)NCC(=O)NCC(=O)NCCCC[C@@H]2NC(=O)[C@@H](Cc3ccccc3)NC(=O)[C@H](CC(=O)O)NC(=O)CNC(=O)[C@H](CCCNC(=N)N)NC2=O)C(=O)NCC(=O)NCC(=O)NCC(=O)NCCCC[C@@H]2NC(=O)[C@@H](Cc3ccccc3)NC(=O)[C@H](CC(=O)O)NC(=O)CNC(=O)[C@H](CCCNC(=N)N)NC2=O)NC(=O)[C@@H](Cc2ccccc2)NC(=O)[C@H](CC(=O)O)NC(=O)CNC1=O [indium-111 labelled] — tissue uptake (female athymic nu/nu mice, brain; intravenous, 4 h): 0.13 ± 0.07 %ID/g
CCCC[C@H](NC(=O)CNC(=O)CNC(=O)CN1CCN(CC(=O)O)CCN(CC(=O)O)CC1)C(=O)N[C@H]1CC(=O)NCCCC[C@@H](C(N)=O)NC(=O)[C@H](Cc2c[nH]c3ccccc23)NC(=O)[C@H](CCCNC(=N)N)NC(=O)[C@@H](Cc2ccccc2)NC(=O)[C@H](Cc2c[nH]cn2)NC1=O [technetium-99m labelled] — tissue uptake (C57 mouse, tumor; iv, 0.037 MBq, 0.5 h): 16.1 ± 4.47 %ID/g
CC(C)C[C@H](NC(=O)[C@@H](CCCCNC(=O)CCCCCNC(=O)CN1CCN(CC(=O)O)CCN(CC(=O)O)CCN(CC(=O)O)CC1)NC(=O)[C@H](Cc1ccc(O)cc1)NC(=O)[C@H](CO)NC(=O)[C@H](Cc1c[nH]c2ccccc12)NC(=O)[C@H](Cc1cnc[nH]1)NC(=O)[C@@H]1CCC(=O)N1)C(=O)N[C@@H](CCCNC(=N)N)C(=O)N1CCC[C@H]1C(=O)NCC(N)=O [indium-111 labelled] — tissue uptake (female athymic nude mouse, skin; intravenous, 0.037 MBq, 4 h): 0.24 ± 0.03 %ID/g

Repeated from above:
N=C(N)NCCC[C@H](NC(=O)[C@H](CCCNC(=N)N)NC(=O)[C@H](CCCNC(=N)N)NC(=O)[C@H](CCCNC(=N)N)NC(=O)[C@H](CCCNC(=N)N)NC(=O)[C@H](CCCNC(=N)N)NC(=O)[C@H](CCCNC(=N)N)NC(=O)[C@H](CCCNC(=N)N)NC(=O)CN1CCN(CC(=O)O)CCN(CC(=O)O)CCN(CC(=O)O)CC1)C(=O)O — cellular uptake (NIH/3T3 cells; refers to: Gd; 0.10 mM, 4 h; relative to: reference compounds): increased
C=CC(=O)Nc1cc(Nc2nccc(-c3cn(C)c4ccccc34)n2)c(OCC(F)(F)F)nc1N(C)CCN(C)C — remaining activity (Cytochrome P450 1A2 (CYP1A2, Homo sapiens, UniProt P05177); enzyme activity, inhibitor, refers to: phenacetin O-deethylation; human liver microsomes; 100 µM): 67.2%
[64Cu+2].c1ccc(CNCc2ccc(CN3CCCN4CCNCCCN(CC4)CC3)cc2)nc1 — tissue uptake (CXCR4; NOD/SCID mouse, U87 and U87-stb-CXCR4 xenografts, pancreas; iv, 60 min, ex vivo): 1.38 ± 0.16 %ID/g
